Measurements of several laboratories.
A part holds a random share of what one study measured. Substitutions count along the parent as printed.
Sequence of UniProt P22612 (whole entry, looked up): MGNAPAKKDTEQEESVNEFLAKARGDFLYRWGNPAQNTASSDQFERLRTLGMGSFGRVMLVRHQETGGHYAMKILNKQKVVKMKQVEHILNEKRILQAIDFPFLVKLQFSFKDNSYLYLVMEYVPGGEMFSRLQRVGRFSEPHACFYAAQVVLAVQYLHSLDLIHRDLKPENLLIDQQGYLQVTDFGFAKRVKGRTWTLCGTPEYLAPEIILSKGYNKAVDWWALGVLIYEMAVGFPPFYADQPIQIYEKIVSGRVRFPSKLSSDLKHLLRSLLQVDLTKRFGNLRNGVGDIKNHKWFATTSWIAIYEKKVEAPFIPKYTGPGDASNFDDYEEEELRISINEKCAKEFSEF
Sequence of UniProt Q8N2K1 (whole entry, looked up): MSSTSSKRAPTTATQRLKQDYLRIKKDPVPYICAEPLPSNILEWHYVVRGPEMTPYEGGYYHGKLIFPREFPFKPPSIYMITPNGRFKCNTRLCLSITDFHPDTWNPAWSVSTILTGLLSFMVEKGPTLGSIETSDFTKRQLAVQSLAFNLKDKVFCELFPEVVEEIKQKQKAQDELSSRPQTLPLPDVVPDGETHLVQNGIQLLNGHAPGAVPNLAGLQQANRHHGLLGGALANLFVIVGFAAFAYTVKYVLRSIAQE
Sequence of UniProt Q16763 (whole entry, looked up): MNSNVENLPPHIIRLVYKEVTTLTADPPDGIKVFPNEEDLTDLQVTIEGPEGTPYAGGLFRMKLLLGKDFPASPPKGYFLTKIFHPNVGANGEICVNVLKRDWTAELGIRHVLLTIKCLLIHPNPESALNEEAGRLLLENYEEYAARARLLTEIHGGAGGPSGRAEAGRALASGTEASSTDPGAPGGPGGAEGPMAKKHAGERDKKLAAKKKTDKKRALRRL
Sequence of UniProt Q9C0C9 (whole entry, looked up): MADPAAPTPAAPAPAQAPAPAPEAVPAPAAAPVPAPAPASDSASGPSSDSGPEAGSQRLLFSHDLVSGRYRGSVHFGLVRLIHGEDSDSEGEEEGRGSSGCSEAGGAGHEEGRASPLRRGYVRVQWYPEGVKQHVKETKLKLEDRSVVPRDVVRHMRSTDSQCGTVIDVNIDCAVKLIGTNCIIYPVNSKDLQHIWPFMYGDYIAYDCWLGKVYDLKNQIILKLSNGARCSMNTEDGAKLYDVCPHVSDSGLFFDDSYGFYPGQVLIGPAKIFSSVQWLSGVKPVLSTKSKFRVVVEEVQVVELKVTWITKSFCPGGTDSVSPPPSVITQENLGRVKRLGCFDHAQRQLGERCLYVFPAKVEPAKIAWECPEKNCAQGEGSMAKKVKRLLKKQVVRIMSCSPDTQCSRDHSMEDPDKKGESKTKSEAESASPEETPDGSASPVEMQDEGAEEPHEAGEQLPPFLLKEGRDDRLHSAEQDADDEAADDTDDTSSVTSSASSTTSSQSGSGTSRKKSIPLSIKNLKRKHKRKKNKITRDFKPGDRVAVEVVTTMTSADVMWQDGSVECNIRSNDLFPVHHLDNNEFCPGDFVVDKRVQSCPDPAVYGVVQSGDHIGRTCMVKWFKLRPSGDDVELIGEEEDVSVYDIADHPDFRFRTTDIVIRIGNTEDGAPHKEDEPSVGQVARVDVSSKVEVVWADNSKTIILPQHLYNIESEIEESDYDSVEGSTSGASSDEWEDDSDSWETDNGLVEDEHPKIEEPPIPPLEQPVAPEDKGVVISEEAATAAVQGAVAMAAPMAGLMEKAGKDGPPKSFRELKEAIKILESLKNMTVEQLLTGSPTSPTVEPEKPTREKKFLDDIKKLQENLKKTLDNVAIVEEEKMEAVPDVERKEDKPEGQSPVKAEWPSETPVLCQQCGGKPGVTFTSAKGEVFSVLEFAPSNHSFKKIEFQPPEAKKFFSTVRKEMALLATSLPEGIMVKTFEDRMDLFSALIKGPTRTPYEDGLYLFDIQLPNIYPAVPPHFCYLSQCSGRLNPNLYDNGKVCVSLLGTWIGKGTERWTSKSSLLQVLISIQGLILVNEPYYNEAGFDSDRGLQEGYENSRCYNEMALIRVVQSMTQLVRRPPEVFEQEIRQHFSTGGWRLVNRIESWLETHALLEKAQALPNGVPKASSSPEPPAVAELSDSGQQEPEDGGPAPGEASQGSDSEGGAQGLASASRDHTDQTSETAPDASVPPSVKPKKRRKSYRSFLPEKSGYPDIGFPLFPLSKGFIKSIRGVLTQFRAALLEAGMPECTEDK
Sequence of UniProt P61081 (whole entry, looked up): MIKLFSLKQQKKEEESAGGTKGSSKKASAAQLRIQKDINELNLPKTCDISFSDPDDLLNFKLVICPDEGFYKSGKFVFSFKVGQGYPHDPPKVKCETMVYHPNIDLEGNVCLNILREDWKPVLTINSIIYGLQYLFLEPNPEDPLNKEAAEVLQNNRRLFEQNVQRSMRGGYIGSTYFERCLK
Sequence of UniProt P63146 (whole entry, looked up): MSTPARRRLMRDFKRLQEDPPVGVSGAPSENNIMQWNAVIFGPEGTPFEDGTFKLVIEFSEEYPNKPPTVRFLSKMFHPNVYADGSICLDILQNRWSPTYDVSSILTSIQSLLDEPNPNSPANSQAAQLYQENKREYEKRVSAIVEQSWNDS
Sequence of UniProt P51668 (whole entry, looked up): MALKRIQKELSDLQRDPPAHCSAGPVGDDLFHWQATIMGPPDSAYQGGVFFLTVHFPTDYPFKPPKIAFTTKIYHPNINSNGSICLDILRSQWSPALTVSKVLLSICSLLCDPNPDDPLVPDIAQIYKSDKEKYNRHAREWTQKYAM
Sequence of UniProt Q969T4 (whole entry, looked up): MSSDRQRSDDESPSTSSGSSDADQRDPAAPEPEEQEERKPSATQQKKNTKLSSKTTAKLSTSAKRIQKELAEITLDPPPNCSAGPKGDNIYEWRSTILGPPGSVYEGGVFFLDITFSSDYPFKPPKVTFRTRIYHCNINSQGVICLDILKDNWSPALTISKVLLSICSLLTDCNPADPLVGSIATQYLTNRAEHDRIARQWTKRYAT
Sequence of UniProt Q9H832 (whole entry, looked up): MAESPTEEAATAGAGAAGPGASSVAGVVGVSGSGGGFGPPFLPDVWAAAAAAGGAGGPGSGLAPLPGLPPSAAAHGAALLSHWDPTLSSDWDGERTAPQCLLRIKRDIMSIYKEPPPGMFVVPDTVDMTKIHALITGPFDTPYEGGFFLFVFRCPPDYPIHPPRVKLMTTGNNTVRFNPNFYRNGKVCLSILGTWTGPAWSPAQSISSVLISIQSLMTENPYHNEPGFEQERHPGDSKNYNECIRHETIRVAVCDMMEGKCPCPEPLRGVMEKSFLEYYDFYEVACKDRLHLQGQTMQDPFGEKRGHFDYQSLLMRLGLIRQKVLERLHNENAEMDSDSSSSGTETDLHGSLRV

Block 1 — target: CEBPE, bZIP domain (human); method: DHFR protein complementation; sample: yeast; relative to: wild-type JUN-FOS pair; reading: higher = stronger binding; measurement: binding fitness
Setting: single substitutions, most at no-binding floor
Parent: JUN, bZIP domain (human); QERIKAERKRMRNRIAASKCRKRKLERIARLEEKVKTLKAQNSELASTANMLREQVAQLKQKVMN; partner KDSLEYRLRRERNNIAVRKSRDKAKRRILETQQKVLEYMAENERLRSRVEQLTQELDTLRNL
E33D: -1.11 natural log
A49Y: -1.01 natural log
V56W: -1.46 natural log
S47R: -0.912 natural log
A29H: -1.21 natural log
L38Y: -1.32 natural log
I28G: -1.31 natural log
A29D: -1.17 natural log

Block 2 — Molecule: B1 (RFPL2 RING domain); method: yeast two-hybrid; sample: yeast; setting: mostly zero background; relative to: not given; reading: higher = stronger interaction; measurement: lacZ reporter activity
B1: RFPL2 RING domain (UniProt O75678); chain MAALFQEASSCPVCSDYLEKPMSLECGCAVCLKCINSLQKEPHGEDLLCCCSSMVSRKNKIRR
UBE2E3 UBC core domain (UniProt Q969T4): 0
UBE2J2 UBC core domain (UniProt Q8N2K1): 0
UBE2O UBC core domain (UniProt Q9C0C9): 0
UBE2D1 UBC core domain (UniProt P51668): 0
UBE2S UBC core domain (UniProt Q16763): 0
UBE2B UBC core domain (UniProt P63146): 0
UBE2M UBC core domain (UniProt P61081): 0
UBE2Z UBC core domain (UniProt Q9H832): 0

Block 3 — method: protein-binding microarray; molecule type: double-stranded DNA, one strand shown; sample: in vitro; tested at: 940 nM top; setting: 60-bp whole probe; added: salmon DNA 0.4 mg/ml; relative to: random background probes; reading: higher = stronger binding; measurement: fitted relative affinity; all sequences stand within: GCCTAGCAC … GTCTTGATTCGCTTGACGCTGCTG
Target: Interferon regulatory factor 5, full length, phosphomimetic (IRF5, Homo sapiens, UniProt Q13568-2, residues 1-514, S451D/S453D/S456D/S462D)
GACGATTTCGGGTATCTAGACGTGCTA: 0.745 z-score
TTAGGTCTCCTTATCCTTGAGTGCTAG: 0.261 z-score
GACGATTTCGGGGATCGAGACGTGCTA: 0.761 z-score
TGCCTTTTGCTTTACTGATGGTGCTAG: 0.557 z-score
TTATGTCTCCTTATCCTTTAGTGCTAG: 1.38 z-score
ATAGGACTGCTTATCCTTTAGTGCTAG: -0.082 z-score
GACGGTATCGACTTTCGGGGCGTGCTA: 4.83 z-score
AGTATGTTCCCTATTTAAGAGTGCTAG: 1.01 z-score

Other studies, line by line
CCCC(=O)Oc1ccc2[nH]c(C(=O)c3cc4ccccc4[nH]3)cc2c1  remaining activity (cAMP-dependent protein kinase catalytic subunit gamma (PRKACG, Homo sapiens, UniProt P22612); enzyme activity, inhibitor; 0.5 µM; relative to: control): 99.8%
